Published values collected from several papers.
Each line is one published result; not all experiments were run side by side. “And” joins repeats or separate records; there may be more than shown. ± marks the error that the study gave.
WD repeat-containing protein 91 WD40 domain, residues 392–747: WD repeat-containing protein 91, WD40 domain, residues 392–747 (Homo sapiens, UniProt A4D1P6)
Genome polyprotein NS3 helicase domain: Genome polyprotein, NS3 helicase domain (Hepatitis C virus genotype 1b, UniProt Q9WMX2)
ESR1: Estrogen receptor (ESR1, Homo sapiens, UniProt P03372)
Chain of UniProt P19801 (whole entry, looked up): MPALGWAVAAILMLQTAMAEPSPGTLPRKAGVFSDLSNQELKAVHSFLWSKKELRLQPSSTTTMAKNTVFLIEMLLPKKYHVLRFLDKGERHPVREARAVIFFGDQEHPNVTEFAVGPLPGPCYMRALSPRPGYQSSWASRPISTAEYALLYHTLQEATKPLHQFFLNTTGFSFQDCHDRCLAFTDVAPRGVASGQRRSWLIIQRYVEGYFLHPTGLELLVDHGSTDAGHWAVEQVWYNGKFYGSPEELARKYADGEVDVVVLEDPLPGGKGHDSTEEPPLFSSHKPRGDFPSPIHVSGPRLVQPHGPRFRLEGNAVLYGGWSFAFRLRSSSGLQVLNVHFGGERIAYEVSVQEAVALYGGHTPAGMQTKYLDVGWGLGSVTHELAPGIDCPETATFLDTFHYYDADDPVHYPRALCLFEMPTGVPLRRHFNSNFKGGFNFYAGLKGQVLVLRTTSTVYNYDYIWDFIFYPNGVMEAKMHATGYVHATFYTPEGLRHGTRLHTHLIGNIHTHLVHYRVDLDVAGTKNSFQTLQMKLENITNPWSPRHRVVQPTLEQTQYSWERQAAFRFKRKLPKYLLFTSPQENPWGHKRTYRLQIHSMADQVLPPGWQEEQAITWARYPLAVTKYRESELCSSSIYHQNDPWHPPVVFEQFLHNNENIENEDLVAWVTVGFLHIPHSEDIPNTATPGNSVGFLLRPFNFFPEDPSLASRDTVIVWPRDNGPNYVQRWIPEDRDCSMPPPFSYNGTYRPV
Chain of UniProt P51575 (whole entry, unmodified, looked up): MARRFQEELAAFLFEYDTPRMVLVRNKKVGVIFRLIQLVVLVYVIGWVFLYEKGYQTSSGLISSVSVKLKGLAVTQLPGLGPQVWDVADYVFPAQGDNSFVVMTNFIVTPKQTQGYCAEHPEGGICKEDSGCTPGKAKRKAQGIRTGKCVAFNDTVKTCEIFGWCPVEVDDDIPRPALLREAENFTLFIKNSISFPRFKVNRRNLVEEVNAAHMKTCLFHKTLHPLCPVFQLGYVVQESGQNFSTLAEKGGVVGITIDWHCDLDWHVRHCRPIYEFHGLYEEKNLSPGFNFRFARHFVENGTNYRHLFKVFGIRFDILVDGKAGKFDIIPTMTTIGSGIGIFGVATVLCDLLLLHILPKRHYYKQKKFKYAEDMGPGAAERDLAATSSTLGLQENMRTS
Chain of UniProt P18669 (whole entry, looked up): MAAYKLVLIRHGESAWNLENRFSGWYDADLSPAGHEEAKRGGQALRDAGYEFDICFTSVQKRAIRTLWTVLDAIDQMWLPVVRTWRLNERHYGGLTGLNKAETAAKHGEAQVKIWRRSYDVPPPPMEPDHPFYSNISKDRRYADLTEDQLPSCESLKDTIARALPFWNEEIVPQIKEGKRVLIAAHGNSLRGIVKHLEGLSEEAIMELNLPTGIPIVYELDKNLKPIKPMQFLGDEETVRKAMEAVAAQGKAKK
Chain of UniProt P03372 (whole entry, looked up): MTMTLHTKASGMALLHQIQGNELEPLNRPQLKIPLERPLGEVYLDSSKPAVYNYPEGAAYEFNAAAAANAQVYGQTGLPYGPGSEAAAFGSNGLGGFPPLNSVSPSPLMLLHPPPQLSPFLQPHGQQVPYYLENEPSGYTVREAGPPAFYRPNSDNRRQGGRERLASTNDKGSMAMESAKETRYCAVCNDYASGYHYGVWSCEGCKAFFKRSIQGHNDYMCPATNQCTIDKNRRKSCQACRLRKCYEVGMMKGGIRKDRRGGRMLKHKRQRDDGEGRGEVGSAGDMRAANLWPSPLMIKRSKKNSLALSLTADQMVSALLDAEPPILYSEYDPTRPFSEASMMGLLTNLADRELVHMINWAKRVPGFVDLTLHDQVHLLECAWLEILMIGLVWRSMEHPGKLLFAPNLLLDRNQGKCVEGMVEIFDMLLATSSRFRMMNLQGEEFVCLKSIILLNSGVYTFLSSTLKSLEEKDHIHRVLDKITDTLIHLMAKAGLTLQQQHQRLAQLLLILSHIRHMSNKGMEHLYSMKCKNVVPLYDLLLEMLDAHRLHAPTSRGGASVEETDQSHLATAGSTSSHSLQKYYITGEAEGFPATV
Chain of UniProt Q9X6J6 (whole entry, unmodified, looked up): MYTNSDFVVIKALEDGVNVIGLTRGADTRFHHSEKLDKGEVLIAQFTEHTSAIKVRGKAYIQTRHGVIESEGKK

Structure (SMILES)	target	test	test system	setting	scale	measurement	result
N#CC1CCN(C(=O)c2ccc(S(=O)(=O)N3CCCc4ccccc43)cc2)CC1	WD repeat-containing protein 91 WD40 domain, residues 392–747	SPR	–	45 µM	–	binding	8% and 1%
OCc1ccccc1O[C@@H]1O[C@H](CO)[C@@H](O)[C@H](O)[C@H]1O	bgl1 (Penicillium oxalicum, UniProt A0A7D7KIC3)	–	Penicillium oxalicum, culture supernatant	pH 5, 50 °C	–	substrate inhibition constant	8.98 mg/mL
CC(=O)N[C@H]1[C@H]([C@H](O)[C@H](O)CO)OC(C(=O)O)=C[C@@H]1O	Genome polyprotein NS3 helicase domain	DNA binding, inhibitor	hepatitis C virus	100 µM, together with: Cy5-dT15 DNA	–	inhibition	2%
NC/C(=C\F)COc1cccc(Cn2c(=S)[nH]c(=O)c3[nH]cnc32)c1	Diamine oxidase [copper-containing] (AOC1, Homo sapiens, UniProt P19801)	substrate turnover, DAO oxidation	–	concentration not given, unit not given	baseline: DMSO control	enzyme activity	0.9 and 0.91 and 0.92 and 0.85 and 0.88
N[C@@H](Cc1c[nH]c2ccccc12)C(=O)O	Transcription attenuation protein MtrB (mtrB, Geobacillus stearothermophilus, UniProt Q9X6J6)	isothermal titration calorimetry	–	25 °C, one-site model	–	ΔG	-9.16 ± 0.05 kcal/mol
C(/C=C/c1sc2c3ccccc3ccc2[n+]1CCCc1ccccc1)=C1/Sc2c(ccc3ccccc23)N1CCCc1ccccc1.[I-]	Protein arginine N-methyltransferase 3 (PRMT3, Homo sapiens, UniProt O60678)	inhibitor, filter binding	–	together with: R4 peptide substrate	–	Hill coefficient	1.65
COc1cccc(OC)c1OCCNCC1CSc2ccccc2O1 (stereo not shown)	Genome polyprotein NS3 helicase domain	DNA binding, inhibitor	hepatitis C virus	100 µM, together with: Cy5-dT15 DNA	–	inhibition	0%
CC(C)[C@H](NC(=O)c1cc(-c2cnn3cc(-c4ccc(OCCN5CCCCC5)cc4)cnc23)cs1)C(F)(F)F	Testis-specific serine/threonine-protein kinase 2 (TSSK2, Homo sapiens, UniProt Q96PF2)	radiometric kinase	–	15 nM	baseline: TSSK2 over ULK1	relative inhibition	0.0114
O=c1ccc2ccc(O)c(O)c2o1	Genome polyprotein NS3 helicase domain	DNA binding, inhibitor	hepatitis C virus	100 µM, together with: Cy5-dT15 DNA	–	inhibition	0%
OC[C@H]1O[C@@H](Oc2cc3c(O)cc(O)cc3[o+]c2-c2ccc(O)c(O)c2)[C@H](O)[C@@H](O)[C@@H]1O.[Cl-]	ESR1	array formation	PRL-HeLa	–	baseline: EC50 ERβ over EC50 ERα	selectivity ratio	0.406
COc1cc(/C=C/c2cc(/C=C/c3ccc(O)c(OC)c3)n(-c3ccc(Cl)cc3Cl)n2)ccc1O	haemin	binding, isothermal titration calorimetry	–	pH 7.4, 37 °C	–	ΔS	-196 ± 3.7 J/(mol·K)
Cc1ccc(N2CC(C(N)=O)CC2=O)cc1 (stereo not shown)	SPRY domain-containing SOCS box protein 2, SPRY domain (Homo sapiens, UniProt Q99619)	binding, affinity selection mass spectrometry	–	–	baseline: other proteins in batch	log fold enrichment	0.111
CC(C)NCC(O)COc1cccc2ccccc12 (stereo not shown)	Glutamate receptor 2 (Homo sapiens, UniProt P42262)	ion current, positive allosteric modulator, SyncroPatch patch clamp	HEK293	3 µM	–	potentiation	98%
CC[C@H](C)[C@H](NC(=O)[C@H](CCCCN)NC(=O)CNC(=O)[C@@H](NC(=O)[C@@H](NC(=O)[C@H](CCSC)NC(=O)[C@H](Cc1c[nH]cn1)NC(=O)CN)[C@@H](C)O)C(C)C)C(=O)N[C@@H](Cc1ccc(O)cc1)C(=O)N[C@@H](C)C(=O)N[C@@H](C)C(=O)N[C@@H](CCSC)C(=O)N[C@@H](CCSC)C(=O)N[C@H](C(=O)N[C@@H](CCSC)C(=O)N[C@@H](CCC(=O)O)C(=O)N[C@@H](C)C(=O)N[C@@H](Cc1ccc(O)cc1)C(=O)N[C@@H](CCCNC(=N)N)C(=O)N[C@@H](CCC(N)=O)C(=O)N[C@@H](CO)C(=O)N[C@@H](CCCCN)C(=O)N[C@@H](C)C(=O)N[C@@H](CCCCN)C(=O)N[C@@H](CCCCN)C(=O)N[C@@H](CC(C)C)C(=O)N[C@@H](CCC(N)=O)C(=O)N[C@@H](C)C(=O)N[C@@H](CCSC)C(=O)N[C@@H](CCCNC(=N)N)C(=O)O)[C@@H](C)CC	Calmodulin-1, Ca2+-bound C-lobe (CALM1, Homo sapiens, UniProt P0DP23)	binding, isothermal titration calorimetry	–	pH 7.4, 15 °C, C-lobe, CaV2.1 IQ domain, together with: Ca2+	–	ΔH	-0.95 ± 0.04 kcal/mol
O=C(O)[C@@H]1CCCN1	Methyl-accepting chemotaxis protein, ligand-binding domain (Pectobacterium atrosepticum, UniProt Q6D515)	binding	–	–	–	delta Tm	binds
C[C@H](CS)C(=O)N1CCC[C@H]1C(=O)O	Genome polyprotein NS3 helicase domain	NS3 helicase DNA binding, fluorescence binding	–	100 µM, together with: Cy5-dT15	–	inhibition	0%
O=C(COP(=O)(O)O)[C@@H](O)[C@H](O)[C@H](O)COP(=O)(O)O	Phosphoglycerate mutase 1 (Homo sapiens, UniProt P18669)	activator	–	0.625 mM, wild-type enzyme, unit not given	relative to no compound	enzyme activity	3.83 and 3.51 and 3.11
Nc1ncnc2c1ncn2[C@@H]1O[C@H](C[C@@H](N)CC[C@H](N)C(=O)O)[C@@H](O)[C@H]1O	O-methyltransferase (Sorghum bicolor, UniProt A0A1B6PFV1)	isothermal titration calorimetry	–	concentration not given, apo protein	–	ΔG of binding	-7.29 kcal/mol
CC[C@H](C)[C@H](NC(=O)[C@H](CCCCN)NC(=O)CNC(=O)[C@@H](NC(=O)[C@@H](NC(=O)[C@H](CCSC)NC(=O)[C@H](Cc1c[nH]cn1)NC(=O)CN)[C@@H](C)O)C(C)C)C(=O)N[C@@H](Cc1ccc(O)cc1)C(=O)N[C@@H](C)C(=O)N[C@@H](C)C(=O)N[C@@H](CCSC)C(=O)N[C@@H](CCSC)C(=O)N[C@H](C(=O)N[C@@H](CCSC)C(=O)N[C@@H](CCC(=O)O)C(=O)N[C@@H](Cc1ccc(O)cc1)C(=O)N[C@@H](Cc1ccc(O)cc1)C(=O)N[C@@H](CCCNC(=N)N)C(=O)N[C@@H](CCC(N)=O)C(=O)N[C@@H](CO)C(=O)N[C@@H](CCCCN)C(=O)N[C@@H](C)C(=O)N[C@@H](CCCCN)C(=O)N[C@@H](CCCCN)C(=O)N[C@@H](CC(C)C)C(=O)N[C@@H](CCC(N)=O)C(=O)N[C@@H](C)C(=O)N[C@@H](CCSC)C(=O)N[C@@H](CCCNC(=N)N)C(=O)O)[C@@H](C)CC	Calmodulin-1, Ca2+-bound N-lobe (CALM1, Homo sapiens, UniProt P0DP23)	binding, isothermal titration calorimetry	–	pH 7.4, 15 °C, N-lobe, CaV2.1 IQ domain, together with: Ca2+	–	stoichiometry	0.87 ± 0.06
O=c1nc(SCc2cc(F)cc(C(F)(F)F)c2)nc(SCc2ccc3sccc3c2)[nH]1	DNA topoisomerase 2-alpha (TOP2A, Homo sapiens, UniProt P11388)	ATPase activity	–	15.6 µM, together with: ATP 2 mM	–	ATP hydrolysis rate	0.757 µM/min and 0.954 µM/min
Nc1ncnc2c1ncn2[C@@H]1O[C@H](COP(=O)(O)CP(=O)(O)OP(=O)(O)O)[C@@H](O)[C@H]1O	P2X purinoceptor 1 (P2RX1, Homo sapiens, UniProt P51575, E282A)	calcium influx	–	100 nM	baseline: ionomycin response	calcium influx	79% and 82.4% and 66.6%
N#CC1CCN(C(=O)c2ccc(NC3COC3)cc2)CC1	WD repeat-containing protein 91 WD40 domain, residues 392–747	binding, SPR single-concentration screen	–	45 µM	–	SPR response	-12.9 RU and -4.2 RU
Clc1ccc(-n2c(-c3ccccc3Cl)nc3c(N4CCC(Nc5ccccc5)CC4)ncnc32)cc1	Cannabinoid receptor 1 (CNR1, Homo sapiens, UniProt P21554)	binding, [3H]CP55940 displacement	–	–	baseline: Ki CB2 over Ki CB1	selectivity ratio	> 1600
O=C(CCl)Nc1ccc2c(c1)OCCO2	14-3-3 protein sigma, with ERα phosphopeptide (SFN, Homo sapiens, UniProt P31947)	binding, fluorescence polarization	–	covalent ligand screen, together with: phosphorylated ERalpha peptide	baseline: control	FP signal	99.3%
[H]/N=C(/NC)NCCC[C@H](N)C(=O)O	Genome polyprotein NS3 helicase domain	DNA binding, inhibitor	hepatitis C virus	100 µM, together with: Cy5-dT15 DNA	–	inhibition	0%
COc1ccc(-c2cc(=O)c3c(O)cc(O[C@@H]4O[C@H](CO[C@@H]5O[C@@H](C)[C@H](O)[C@@H](O)[C@H]5O)[C@@H](O)[C@H](O)[C@H]4O)cc3o2)cc1	ESR1	array formation	PRL-HeLa	–	baseline: EC50 ERβ over EC50 ERα	selectivity ratio	0.582
CC(C)c1ccc(C(=O)NCCOc2ccc(C(=O)N3CCC(C#N)CC3)cc2)cc1	WD repeat-containing protein 91 WD40 domain, residues 392–747	SPR	–	45 µM	–	binding	2% and -1%
NCC(=O)O	N-alpha-acetyltransferase 80 (NAA80, Homo sapiens, UniProt Q93015)	substrate, DTNB	–	2 mM, 30 min, 37 °C, together with: acetyl-CoA 500 µM	–	product formation	-3.68 µM

A few entries again:
Structure (SMILES)	target	test	test system	setting	scale	measurement	result
CC(=O)N[C@H]1[C@H]([C@H](O)[C@H](O)CO)OC(C(=O)O)=C[C@@H]1O	Genome polyprotein NS3 helicase domain	DNA binding, inhibitor	hepatitis C virus	100 µM, together with: Cy5-dT15 DNA	–	inhibition	2%
NC/C(=C\F)COc1cccc(Cn2c(=S)[nH]c(=O)c3[nH]cnc32)c1	Diamine oxidase [copper-containing] (AOC1, Homo sapiens, UniProt P19801)	substrate turnover, DAO oxidation	–	concentration not given, unit not given	baseline: DMSO control	enzyme activity	0.9 and 0.91 and 0.92 and 0.85 and 0.88
N[C@@H](Cc1c[nH]c2ccccc12)C(=O)O	Transcription attenuation protein MtrB (mtrB, Geobacillus stearothermophilus, UniProt Q9X6J6)	isothermal titration calorimetry	–	25 °C, one-site model	–	ΔG	-9.16 ± 0.05 kcal/mol
